Results collected from several papers.
Lines come from different studies, so protocols differ. ± gives the spread as reported. ≈ marks a conversion by molar mass, not a printed value.
Organism: Enterococcus faecalis

Substance = N#Cc1c(N2C(=O)CCC2=O)sc2c1CCC(c1ccccc1)C2 (centres unmarked); test = bacterial growth; system = ATCC 29122; measurement = IC50; value = 28.1 ± 1.56 µg/mL (≈ 83.5 µM)
Substance = CCC(=O)O[C@H]1[C@H](C)O[C@@H](O[C@H]2[C@H](N(C)C)[C@@H](O)[C@H](O[C@H]3[C@@H](CC=O)C[C@@H](C)[C@@H](O)/C=C/C=C/C[C@@H](C)OC(=O)C[C@@H](O)[C@@H]3OC)O[C@@H]2C)C[C@@]1(C)O; system = 1528 vancomycin-resistant, DMSO-methanol; conditions = 50 µL of 2.0 mM, 24 h, 37 °C, 9 mm well; measurement = inhibition zone diameter; value = 16.5 mm
Substance = O=C(COc1ccc(-c2nc3ccc(Cl)cc3[nH]2)cc1)N1CCOCC1; test = microbial growth, broth dilution; system = ATCC29212; measurement = MIC; value = 0.25 to 1 µg/mL (≈ 0.672 to 2.69 µM)
Substance = COc1cc2cc(-c3cccc(-c4ccc(-c5ccccc5)cc4)c3)[n+](C)c(C)c2cc1OC.[I-]; test = broth microdilution; system = ATCC 51575 VRE, brain heart infusion broth; conditions = 24 h, 37 °C; measurement = MIC; value = 4 to 8 µg/mL
Substance = CCC[C@H]1c2ccccc2C=NN1C(=O)/C=C/c1cc(Cc2cnc(N)nc2N)cc(OC)c1OC (racemic); test = microbial growth, broth dilution; system = ATCC29212; measurement = MIC; value = 0.06 to 0.125 µg/mL (≈ 0.123 to 0.257 µM)
Substance = vancomycin; test = broth microdilution; system = ATCC 51299, VanB; measurement = MIC; value = 120 µg/mL
Substance = CCN(CC)CCOc1ccc(-c2nc3ccccc3[nH]2)cc1; test = microbial growth, broth dilution; system = ATCC29212; measurement = MIC; value = > 256 µg/mL
Substance = CCOC(=O)c1c(NC(=O)c2cccs2)sc2c1CCC(c1ccccc1)C2 (centres unmarked); test = bacterial growth; system = ATCC 29122; measurement = IC50; value = 37.3 ± 0.99 µg/mL (≈ 90.6 µM)

Some of these lines once more:
Substance = COc1cc2cc(-c3cccc(-c4ccc(-c5ccccc5)cc4)c3)[n+](C)c(C)c2cc1OC.[I-]; test = broth microdilution; system = ATCC 51575 VRE, brain heart infusion broth; conditions = 24 h, 37 °C; measurement = MIC; value = 4 to 8 µg/mL
